# Measured values from different studies.
# T1: DNA aptamer; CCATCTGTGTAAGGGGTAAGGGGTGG
# T2: DNA aptamer; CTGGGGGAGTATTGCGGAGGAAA
# T3: DNA aptamer C50A; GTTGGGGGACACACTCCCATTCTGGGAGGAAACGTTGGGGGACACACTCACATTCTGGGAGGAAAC
# T4: DNA aptamer; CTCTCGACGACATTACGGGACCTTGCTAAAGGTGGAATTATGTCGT
# T5: DNA aptamer; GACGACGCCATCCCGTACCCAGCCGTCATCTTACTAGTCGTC
# T6: DNA aptamer; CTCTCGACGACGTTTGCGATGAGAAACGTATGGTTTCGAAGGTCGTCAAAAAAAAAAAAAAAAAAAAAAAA
# T7: DNA aptamer; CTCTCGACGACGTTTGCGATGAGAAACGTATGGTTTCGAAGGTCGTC
# T8: DNA aptamer; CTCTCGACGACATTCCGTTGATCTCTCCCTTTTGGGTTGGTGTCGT
# T9: DNA aptamer C19T; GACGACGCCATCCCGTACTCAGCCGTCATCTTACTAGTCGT
# T10: DNA aptamer, abasic dSpacer opposite cytosine; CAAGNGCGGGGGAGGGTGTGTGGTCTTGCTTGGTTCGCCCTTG
SMILES,target,test,system,conditions,endpoint,result
COc1cccc2c1C(=O)c1c(O)c3c(c(O)c1C2=O)C[C@@](O)(C(=O)CO)C[C@@H]3O[C@H]1C[C@H](N)[C@H](O)[C@H](C)O1,"T1, DNA aptamer",square-wave voltammetry,whole bovine blood,"37 °C, apparent, Hill fit",Kd,22 µM
Nc1ncnc2c1ncn2[C@@H]1O[C@H](COP(=O)(O)OP(=O)(O)OP(=O)(O)O)[C@@H](O)[C@H]1O,"T2, DNA aptamer",square wave voltammetry,,"apparent, one-site Langmuir fit, E-AB sensor",Kd,61 µM
Nc1ncnc2c1ncn2[C@@H]1O[C@H](CO)[C@@H](O)[C@H]1O,"T3, DNA aptamer C50A",native PAGE mobility shift,,together with: Mg2+ 10 mM,binding,binds
O=c1[nH]c(=O)c2[nH]c(=O)[nH]c2[nH]1,"T4, DNA aptamer","probe displacement, competitor, fluorescence",,,binding,binds
CC1(C)S[C@@H]2[C@H](NC(=O)Cc3ccccc3)C(=O)N2[C@H]1C(=O)O,"T5, DNA aptamer","competition, fluorescence displacement",,together with: ThT 10 µM,binding,no binding
Nc1ncnc2c1ncn2[C@@H]1O[C@H](COP(=O)(O)OP(=O)(O)OP(=O)(O)O)[C@@H](O)[C@H]1O,"T6, DNA aptamer","probe displacement, competitor, SPR",,25 °C,binding,binds
Nc1ncnc2c1ncn2[C@@H]1O[C@H](CO)[C@@H](O)[C@H]1O,"T7, DNA aptamer","competition, fluorescence strand displacement",,together with: adenosine 100 µM,binding,binds
CN(C)[C@@H]1C(=O)C(C(N)=O)=C(O)[C@@]2(O)C(=O)C3=C(O)c4c(O)cccc4[C@@](C)(O)[C@H]3[C@H](O)[C@@H]12,"T8, DNA aptamer","probe displacement, competitor, fluorescence",,,binding,binds
CC1(C)S[C@@H]2[C@H](NC(=O)[C@H](N)c3ccccc3)C(=O)N2[C@H]1C(=O)O,"T9, DNA aptamer C19T","competition, fluorescence displacement",,"apparent, together with: ThT 10 µM",Kd,5.3 µM
Nc1ncnc2c1ncn2[C@@H]1O[C@H](COP(=O)(O)OP(=O)(O)OP(=O)(O)O)[C@@H](O)[C@H]1O,"T2, DNA aptamer",amperometry,,qualitative,binding,binds
Cc1nc2nc(N)ccc2c(C)c1C,"T10, DNA aptamer, abasic dSpacer opposite cytosine",fluorescence quenching,,,binding,binds

# For quick reference, copied from above:
SMILES,target,test,system,conditions,endpoint,result
Nc1ncnc2c1ncn2[C@@H]1O[C@H](COP(=O)(O)OP(=O)(O)OP(=O)(O)O)[C@@H](O)[C@H]1O,"T6, DNA aptamer","probe displacement, competitor, SPR",,25 °C,binding,binds
